# Published values gathered from unrelated publications.
# Numbered parts are unrelated; each lists some results of a single study.

# Sample 1
# Target: Ras GTPase-activating protein-binding protein 1, full length (G3BP1, Homo sapiens, UniProt Q13283)
# Sequence of UniProt Q13283 (whole entry, looked up): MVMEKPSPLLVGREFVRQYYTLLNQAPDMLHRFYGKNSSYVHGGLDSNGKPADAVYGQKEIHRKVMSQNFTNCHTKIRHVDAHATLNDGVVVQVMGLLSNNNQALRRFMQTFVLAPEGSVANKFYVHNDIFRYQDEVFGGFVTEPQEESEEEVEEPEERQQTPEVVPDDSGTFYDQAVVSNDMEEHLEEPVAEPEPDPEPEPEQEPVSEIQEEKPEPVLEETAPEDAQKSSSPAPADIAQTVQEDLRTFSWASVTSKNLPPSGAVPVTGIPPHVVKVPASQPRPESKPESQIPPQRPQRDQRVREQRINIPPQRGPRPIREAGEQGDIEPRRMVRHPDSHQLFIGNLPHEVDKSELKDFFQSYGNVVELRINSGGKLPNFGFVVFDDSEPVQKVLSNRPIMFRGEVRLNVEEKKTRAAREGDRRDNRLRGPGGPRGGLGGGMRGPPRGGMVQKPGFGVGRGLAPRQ
# Technique: RNA Bind-n-Seq
# Form: RNA
# Medium: in vitro
# Tested at: 200 nM
# Setting: whole 134-nt RNA, ends assumed
# Together with: 150 mM LiCl
# Baseline: input library
# Reading: higher = stronger binding
# Library: 7-deaza-guanosine replaces G
# All sequences stand within: GGGAGUUCUACAGUCCGACGAUC … UGGAAUUCUCGGGUGUCAAGG
Sequence,log2 enrichment
UCAAGUCCUGUGCUACACAUCGUAUGUACCGAAUCGGGGUUUGGUUUGGUUUGGAAAGUAUUAUGUUACGCCGUUCGGAUCUGCACUUCC,-0.0558
UUUUAUGUGGAGUUAUGAAGACCUACAGGCAGAGAGAGAAACAGGGGAGCAAGGUGCAAGAGUCCACAAAGGGACCUGAUGAAGCGAAGA,-0.52
CCUCAAGUCCUGUGCUACACAUCGUAUGUACCGAAUCGGUUGGGGUUGGUUGGAAAGUAUUAUGUUACGCCGUUCGGAUCUGCACUUCCA,0.386
GUCCUGUGCUACACAUCGUAUGUACCGAAUCGGGGUUUUUGGGGUGGGGAAAAAGGGGAAAGUAUUAUGUUACGCCGUUCGGAUCUGCAC,0.0827
UCCUGUGCUACACAUCGUAUGUACCGAAUCAAACCCCCCCAAAUUUUUUUAAACCCAAAAAAGUAUUAUGUUACGCCGUUCGGAUCUGCA,1.53
CCUGUGCUACACAUCGUAUGUACCGAAUCGGAAAAAAAGGGAAAAAAAGGGAAAAAAAGGGAAAGUAUUAUGUUACGCCGUUCGGAUCUG,0.0218
CUCAAGUCCUGUGCUACACAUCGUAUGUACCGAAUCGGGGCCGGGCCGGCCGGGAAAGUAUUAUGUUACGCCGUUCGGAUCUGCACUUCC,0.715
AAGUCCUGUGCUACACAUCGUAUGUACCGAAUCGGGGCCCGGGCCCGGGCCCGGGGAAAGUAUUAUGUUACGCCGUUCGGAUCUGCACUU,-0.612

# Sample 2
# Target: Interferon regulatory factor 7, full length, phosphomimetic (IRF7, Homo sapiens, UniProt Q92985, residues 1-503, S471D/S472D/S475D/S476D/S477D/S483D/S484D/S487D)
# Sequence of UniProt Q92985 (whole entry, unmodified, looked up): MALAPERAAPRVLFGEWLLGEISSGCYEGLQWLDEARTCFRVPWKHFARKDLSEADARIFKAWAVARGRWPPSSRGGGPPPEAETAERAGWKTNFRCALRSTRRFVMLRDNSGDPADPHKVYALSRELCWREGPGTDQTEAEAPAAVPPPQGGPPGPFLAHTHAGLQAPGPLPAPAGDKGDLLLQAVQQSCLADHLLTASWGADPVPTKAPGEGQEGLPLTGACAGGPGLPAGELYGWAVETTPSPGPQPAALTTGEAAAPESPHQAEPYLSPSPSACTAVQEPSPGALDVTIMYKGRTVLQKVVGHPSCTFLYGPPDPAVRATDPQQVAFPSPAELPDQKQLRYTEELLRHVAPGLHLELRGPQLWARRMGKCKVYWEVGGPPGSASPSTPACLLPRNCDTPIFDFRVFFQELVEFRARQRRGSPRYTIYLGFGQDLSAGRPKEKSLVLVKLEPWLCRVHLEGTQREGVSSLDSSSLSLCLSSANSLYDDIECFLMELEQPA
# Technique: protein-binding microarray
# Form: double-stranded DNA, one strand shown
# Medium: in vitro
# Tested at: 2200 nM top
# Setting: 60-bp whole probe
# Together with: salmon DNA 0.4 mg/ml
# Baseline: random background probes
# Reading: higher = stronger binding
# All sequences stand within: GCCTAGCAC … GTCTTGATTCGCTTGACGCTGCTG
Sequence,fitted relative affinity [z-score]
TCAGGTATGCTCATGACACTGTGCTAG,0.577
TTAGAACTGGGGACTTGATTAGTGCTA,-0.24
GAGGATTTCGGGTTTCGAGACGTGCTA,4.15
GACGGACAGGGTATCGGGACGTGCTAG,-0.948
GACGATGTCAGTCTCGAGACGTGCTAG,0.168
GACGGTTACGGTTCCGGGACGTGCTAG,0.885
GCTCCTTTTAATTTTTAACGGTGCTAG,1.56
TATCCTTCCCCTCTAGGTTCGTGCTAG,2.39

# Sample 3
# Target: Hepatocyte nuclear factor 3-beta, forkhead domain (FOXA2, Homo sapiens, UniProt Q9Y261, residues 142-269)
# Technique: protein-binding microarray
# Form: double-stranded DNA, one strand shown
# Medium: in vitro
# Tested at: not given
# Setting: k-mer, scored over probes, only values ≥0.25
# Reading: higher = stronger binding
# Construct (chain): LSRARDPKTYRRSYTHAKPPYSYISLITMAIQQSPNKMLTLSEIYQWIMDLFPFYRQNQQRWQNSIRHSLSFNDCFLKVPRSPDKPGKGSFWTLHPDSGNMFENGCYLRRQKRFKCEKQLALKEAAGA
Sequence,E-score
ATGTATAC,0.344
ACAAATAA,0.372
TTAACCAA,0.32
TACATTCA,0.268
CACAACAC,0.28

# Single results of other studies
Substance,target,test,test system,setting,scale,quantity,value
"PhoQ, residues 284 288 289 292 302 303 NLGVHL","PhoP, residues 12 14 15 18 19 HEGLL (Escherichia coli, UniProt P23836)","Sort-seq, item: YFP reporter",E. coli,"PhoQ-PhoP variant library, together with: 10 µM Mg2+","baseline: high Mg2+ state, higher = stronger signaling",fold induction,8.54

# Some of these lines once more (sample 1):
Sequence,log2 enrichment
CCUCAAGUCCUGUGCUACACAUCGUAUGUACCGAAUCGGUUGGGGUUGGUUGGAAAGUAUUAUGUUACGCCGUUCGGAUCUGCACUUCCA,0.386
GUCCUGUGCUACACAUCGUAUGUACCGAAUCGGGGUUUUUGGGGUGGGGAAAAAGGGGAAAGUAUUAUGUUACGCCGUUCGGAUCUGCAC,0.0827
UCCUGUGCUACACAUCGUAUGUACCGAAUCAAACCCCCCCAAAUUUUUUUAAACCCAAAAAAGUAUUAUGUUACGCCGUUCGGAUCUGCA,1.53
CCUGUGCUACACAUCGUAUGUACCGAAUCGGAAAAAAAGGGAAAAAAAGGGAAAAAAAGGGAAAGUAUUAUGUUACGCCGUUCGGAUCUG,0.0218
